Assay results from different studies.
Every numbered part comes from another study and shows a few of its results, in no order.

Study 1 — method: protein-binding microarray; form: double-stranded DNA, one strand shown; sample: in vitro; tested at: 2200 nM top; setting: 60-bp whole probe; together with: salmon DNA 0.4 mg/ml; relative to: random background probes; direction: higher = stronger binding; measurement: fitted relative affinity; all sequences stand within: GCCTAGCAC … GTCTTGATTCGCTTGACGCTGCTG
Target: Interferon regulatory factor 7, full length, phosphomimetic (IRF7, Homo sapiens, UniProt Q92985, residues 1-503, S471D/S472D/S475D/S476D/S477D/S483D/S484D/S487D)
Construct (chain): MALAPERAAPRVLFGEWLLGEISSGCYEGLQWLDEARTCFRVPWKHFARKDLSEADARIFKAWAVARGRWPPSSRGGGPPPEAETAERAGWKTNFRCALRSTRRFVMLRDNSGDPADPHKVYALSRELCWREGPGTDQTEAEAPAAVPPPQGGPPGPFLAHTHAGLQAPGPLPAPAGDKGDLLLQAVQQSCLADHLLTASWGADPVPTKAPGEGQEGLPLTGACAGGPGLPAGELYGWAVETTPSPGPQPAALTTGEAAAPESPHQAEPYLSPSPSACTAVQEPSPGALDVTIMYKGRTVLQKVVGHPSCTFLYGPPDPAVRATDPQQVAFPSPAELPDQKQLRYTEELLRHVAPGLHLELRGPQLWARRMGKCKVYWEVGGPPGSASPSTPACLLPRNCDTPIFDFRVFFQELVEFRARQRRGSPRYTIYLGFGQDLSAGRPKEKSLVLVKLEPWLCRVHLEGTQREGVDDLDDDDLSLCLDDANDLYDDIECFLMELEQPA
TCAATTTTCTCTTATTCACTGTGCTAG: 1.98 z-score
TCAGGTTTACCAGATCATCTGGTGCTA: 0.48 z-score
TTGGGTTTCCTTATCCTTTAGTGCTAG: 2.01 z-score
GACGATTTCGGGTATCAAGACGTGCTA: 2.46 z-score
GACGATATCGGACTGGGGACGTGCTAG: -0.184 z-score
TTAGAACTGGGGACTGGATCAGTGCTA: -0.313 z-score
TTTTTTTTCTAACTAAAAATGTGCTAG: 1.18 z-score
TTAGGACTGGGGTATCGTTTAGTGCTA: -0.159 z-score
GACGGTTTCGGGACTGGTGACGTGCTA: 3.65 z-score

Study 2 — method: RNA Bind-n-Seq; form: RNA; sample: in vitro; tested at: 365 nM; relative to: no-protein control; direction: higher = stronger binding; measurement: RBNS enrichment (R)
Target: RNA binding protein fox-1 homolog 2, RRM domain, GST-SBP tag (RBFOX2, Homo sapiens, UniProt O43251-10, residues 100-194)
Setting: natural RNA segment, single round, ends assumed
All sequences stand within: GGGAGUUCUACAGUCCGACGAUC … UGGAAUUCUCGGGUGCCAA
AGGAGGGUGUCUGCAGAAGGUGGAGAGCAGGGGCAGAGGCCCCACUGGCCACCCCCUGCUUCCCAGAGUGAAACCUUGUGCCUGGUGACCAAAGUCCCUCCAAAGUGCUC: 0.391
UUGCAAAAAUUUCUACAAAAAUUGUUUUCUUCAUCCUUGUGGUGCUUAUUCAUCUGAGCCGUCUCCACAGUCCCAAUGCCUCUGCUUUUUGUUUUACUUUUGUAGCAUAA: 0.973
AGUUUGUGAUAAUUGCUCCAGUUCUACAAACAACAGAAUUUUAAAUAGAGGAAGUGGAUAAAGGAGACACCUCCCUUGCUGUGUGCUCUUUGAAAGUAAUUGACAGAAAA: 0.656
GAACCCCUGGACUUGCCAGGUGCCUGAGCAUCUUCCCAGGAUAUGCCUGCCAGCCAGCAGCCCCUCAGGAAUGCUUCUAUAAUAGAUCCAGUAAUGAAAGCAGCACCAUA: 0.76
UCUUGUCAGAAGUGUCACUGCCAAGGGACCAGAGAGAGGCUGCUAAGAGCCUGGACAUGCCUACCCUGAAAGCAGCUGCCUUCAUUACCCUUUUCUGUGCGCCUGUUCUG: 0.431
AUUCUUUCAAUUUGGUUUGUCCUUCAGUUUUCUUUUCUAUAAAUGUGCUUGGUGAAAUCAGCAAGAAACCAACCAUAUAAAACAGUGUGUGCCGGGCUCUGACUGAGAAA: 1.31
ACACGUUUGUUCUAUGUUGUAAGUGUCACUCUGAAAGAAGUUUAACAGUAUCUGGUUUUUAAAAUAUUUGCUAUGUAGUAAUGGGCAUUUUAAGAUAUAGUUAAGAUAUA: 0.736

Study 3 — method: RNAcompete; form: RNA; sample: in vitro; tested at: 20 nM; setting: 7-mer, probes averaged, single round; relative to: mean of 7-mers; direction: higher = stronger binding; measurement: 7-mer Z-score
Target: PABPC1L2, full length, GST fusion (mouse, UniProt A0ABA7IW68)
Construct (chain): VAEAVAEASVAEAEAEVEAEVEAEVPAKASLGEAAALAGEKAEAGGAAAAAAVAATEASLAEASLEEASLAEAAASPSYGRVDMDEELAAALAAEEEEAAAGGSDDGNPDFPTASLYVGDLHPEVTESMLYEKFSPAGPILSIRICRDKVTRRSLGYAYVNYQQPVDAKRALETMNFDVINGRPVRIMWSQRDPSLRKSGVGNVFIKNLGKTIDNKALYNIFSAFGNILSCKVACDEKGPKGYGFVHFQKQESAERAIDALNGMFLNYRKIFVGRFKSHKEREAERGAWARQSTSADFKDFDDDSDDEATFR
UUCCUCC: -0.438
AGGGGGA: 0.392
ACGGUUA: 0.0315
UCAUGCC: -0.403
CGGGUGG: 0.0279
UGGCCUG: -0.012
GAUCCGG: -0.115
CGGGUUC: -0.19
GAAUAGA: 0.164

Other studies, line by line
PhoQ, residues 284 288 289 292 302 303 TLASMF — fold induction (PhoP, residues 12 14 15 18 19 VQALL (Escherichia coli, UniProt P23836); Sort-seq, refers to: YFP reporter; E. coli; PhoQ-PhoP variant library, together with: 10 µM Mg2+; relative to: high Mg2+ state, higher = stronger signaling): 5.7

Excerpt of the above (study 3):
GAUCCGG: -0.115
CGGGUUC: -0.19
